Published values of several laboratories.
Compare with care: the assays were run in different laboratories.
Organism: Staphylococcus aureus

| Compound | test | test system | conditions | MIC |
| --- | --- | --- | --- | --- |
| CC(C)C[C@H](NC(=O)[C@H](CCCCN)NC(=O)[C@H](C)NC(=O)[C@H](CC(C)C)NC(=O)[C@H](CCCCN)NC(=O)[C@H](CCC(N)=O)NC(=O)[C@H](CCCCN)NC(=O)[C@H](CC(C)C)NC(=O)[C@H](CCCCN)NC(=O)[C@H](CCC(N)=O)NC(=O)[C@H](CC(C)C)NC(=O)[C@H](CCCCN)NC(=O)[C@H](C)NC(=O)[C@H](CCCCN)NC(=O)[C@H](CC(C)C)NC(=O)[C@H](CCCCN)NC(=O)[C@H](C)NC(=O)[C@H](CC(C)C)NC(=O)[C@H](CCCCN)NC(=O)[C@H](CCC(N)=O)NC(=O)[C@@H](N)CCCCN)C(N)=O | broth microdilution | ATCC 6538 | 24 h | > 50 µM |
| CC[C@H](C)[C@H](NC(=O)[C@@H](CCCNC(=N)N)NC(=O)[C@H](CCCNC(=N)N)NC(=O)[C@@H]1CCCN1C(=O)[C@@H]1CCCN1C(=O)[C@H](CCCNC(=N)N)NC(=O)[C@@H]1CCCN1C(=O)[C@H](CCCNC(=N)N)NC(=O)[C@@H]1CCCN1C(=O)[C@H](CC(C)C)NC(=O)[C@H](Cc1c[nH]c2ccccc12)NC(=O)[C@@H]1CCCN1C(=O)[C@@H]1CCCN1C(=O)[C@H](CCCCN)NC(=O)[C@H](CC(=O)O)NC(=O)[C@@H](N)C(C)C)C(=O)N[C@@H](Cc1ccc(O)cc1)C(=O)N[C@@H](CC(N)=O)C(=O)N[C@H](CCCNC(=N)N)C(N)=O | broth microdilution | DSM 6247 | 18 h, 37 °C, 25% MHB2 | 128 µg/mL |
| CC(C)C[C@@H](NC(=O)[C@@H](CCCNC(=N)N)NC(=O)[C@H](N)CCCNC(=N)N)C(=O)N[C@H](CC(C)C)C(=O)N[C@H](CCCNC(=N)N)C(=O)N[C@H](CCCCN)C(=O)N[C@H](CC(C)C)C(=O)N[C@H](CCCCN)C(=O)NCC(=O)N[C@H](CCCCN)C(=O)N[C@H](CCCCN)C(=O)N[C@H](CC(C)C)C(=O)N[C@H](Cc1ccc(O)cc1)C(=O)N[C@H](CC(C)C)C(=O)N[C@H](Cc1ccc(O)cc1)C(=O)N[C@H](Cc1ccccc1)C(=O)N[C@H](CCCCN)C(=O)N[C@H](CC(C)C)C(=O)N[C@H](CCC(N)=O)C(=O)N[C@H](CC(C)C)C(=O)N[C@H](CC(C)C)C(=O)N[C@H](CCCCN)C(=O)N[C@H](CCCCN)C(N)=O | broth microdilution | KCTC 1621, Mueller-Hinton broth | with: FeCl3 4 µM | 16 µM |
| CC[C@H](C)[C@H](N)C(=O)N[C@@H](CCCNC(=N)N)C(=O)N[C@H](C(=O)N[C@@H](Cc1c[nH]c2ccccc12)C(=O)N[C@@H](Cc1ccccc1)C(=O)N[C@H](C(=O)N[C@@H](CCCCN)C(=O)N[C@H](C(=O)N[C@@H](CCCNC(=N)N)C(=O)N[C@@H](CCCCN)C(=O)N[C@@H](CCSC)C(=O)N[C@@H](CCCCN)C(=O)N[C@@H](C)C(=O)N[C@H](C(=O)N[C@@H](Cc1ccc(O)cc1)C(=O)N[C@@H](Cc1c[nH]cn1)C(=O)N[C@H](C(N)=O)[C@@H](C)O)[C@@H](C)CC)C(C)C)[C@@H](C)CC)C(C)C | broth dilution | ATCC 25923, Mueller-Hinton broth | 24 h, 37 °C | 50 µM |
| CN[C@H](CC(C)C)C(=O)N[C@H]1C(=O)N[C@@H](CC(N)=O)C(=O)N[C@H]2C(=O)N[C@H]3C(=O)N[C@H](C(=O)N[C@H](C(=O)O)c4cc(O)cc(O)c4-c4cc3ccc4O)[C@H](O)c3ccc(c(Cl)c3)Oc3cc2cc(c3O[C@@H]2O[C@H](CO)[C@@H](O)[C@H](O)[C@H]2O[C@H]2C[C@](C)(NCc3ccc(OCc4cn(CC(=O)N[C@H](C(=O)N[C@@H](CCN)C(=O)N[C@H]5CCNC(=O)[C@H]([C@@H](C)O)NC(=O)[C@H](CCN)NC(=O)[C@H](CCN)NC(=O)[C@H](CC(C)C)NC(=O)[C@@H](CC(C)C)NC(=O)[C@H](CCN)NC5=O)[C@@H](C)O)nn4)c(OC)c3)[C@H](O)[C@H](C)O2)Oc2ccc(cc2Cl)[C@H]1O | – | NRS402 VISA | – | 3 µM |
| c1ccc(CCNC2CCCc3c2[nH]c2ccc(C4CCCCC4)cc32)cc1 (stereo not shown) | broth microdilution | USA300 JE2 MRSA | – | 2 µg/mL |
| CC[C@H](C)[C@H](NC(=O)[C@@H](CCCNC(=N)N)NC(=O)[C@H](CCCNC(=N)N)NC(=O)[C@@H]1CCCN1C(=O)[C@@H]1CCCN1C(=O)[C@H](CCCCNC(=N)N)NC(=O)[C@@H]1CCCN1C(=O)[C@H](CCCNC(=N)N)NC(=O)[C@@H]1CCCN1C(=O)[C@H](CC(C)C)NC(=O)[C@H](Cc1ccc(O)cc1)NC(=O)[C@@H]1CCCN1C(=O)[C@@H]1CCCN1C(=O)[C@H](CCCCN)NC(=O)[C@H](CC(=O)O)NC(=O)[C@@H](N)C(C)C)C(=O)N[C@@H](Cc1ccc(O)cc1)C(=O)N[C@@H](CC(N)=O)C(=O)N[C@H](CCCNC(=N)N)C(N)=O | broth microdilution | DSM 6247 | 18 h, 37 °C, 25% MHB2 | 64 µg/mL |
| CC(C)[C@H](NC(=O)[C@H](Cc1ccc(O)cc1)NC(=O)[C@H](CS)NC(=O)[C@@H](NC(=O)[C@H](CCCNC(=N)N)NC(=O)[C@H](Cc1ccccc1)NC(=O)[C@H](CS)NC(=O)[C@H](Cc1c[nH]c2ccccc12)NC(=O)[C@@H](N)CCCNC(=N)N)C(C)C)C(=O)NCC(=O)N[C@@H](Cc1ccccc1)C(=O)N[C@@H](CS)C(=O)N[C@@H](Cc1ccc(O)cc1)C(=O)N[C@@H](Cc1c[nH]c2ccccc12)C(=O)N[C@@H](CCCCN)C(=O)N[C@@H](CS)C(=O)N[C@@H](CCCNC(=N)N)C(=O)O | broth microdilution | ATCC 29213, Mueller-Hinton broth | 16 to 20 h, 37 °C | 8.79 µg/mL |
| CC1CCN(C(=O)c2cccc(NC(=O)Nc3cc(Cl)cc(Cl)c3)c2)CC1 | checkerboard, item: ceftobiprole | CRB, PBP4 overexpressor | 25 µM | > 64 µg/mL |
| N=C(N)NCCC[C@@H]1NC(=O)[C@H](CCCNC(=N)N)NC(=O)[C@@H](C(c2ccccc2)c2ccccc2)NC(=O)[C@H](Cc2c[nH]c3ccccc23)NC(=O)[C@@H](C(c2ccccc2)c2ccccc2)NC(=O)[C@@H](CCCNC(=N)N)NC(=O)[C@@H](CCCNC(=N)N)NC1=O | – | 1193193, MRSA | – | 4 µg/mL |
| CN[C@H](CC(C)C)C(=O)N[C@H]1C(=O)N[C@@H](CC(N)=O)C(=O)N[C@H]2C(=O)N[C@H]3C(=O)N[C@H](C(=O)N[C@H](C(=O)O)c4cc(O)cc(O)c4-c4cc3ccc4O)[C@H](O)c3ccc(c(Cl)c3)Oc3cc2cc(c3O[C@@H]2O[C@H](CO)[C@@H](O)[C@H](O)[C@H]2O[C@H]2C[C@](C)(NCc3ccc(OCc4cn(CCCCC(=O)N[C@H](C(=O)N[C@@H](CCN)C(=O)N[C@H]5CCNC(=O)[C@H]([C@@H](C)O)NC(=O)[C@H](CCN)NC(=O)[C@H](CCN)NC(=O)[C@H](CC(C)C)NC(=O)[C@@H](CC(C)C)NC(=O)[C@H](CCN)NC5=O)[C@@H](C)O)nn4)c(OC)c3)[C@H](O)[C@H](C)O2)Oc2ccc(cc2Cl)[C@H]1O | – | VRSA 2 vanA | – | 48 µM |
| CC[C@H](C)[C@@H]1NC(=O)[C@H](CO)NC(=O)C(C)(CCCCN)NC(=O)[C@@H]2CSSC[C@@H](C(=O)N[C@@H](Cc3ccc(O)cc3)C(N)=O)NC(=O)[C@H](CCCCN)NC(=O)[C@@H]3CSSC[C@H](NC(=O)[C@H](CCCNC(=N)N)NC(=O)C(C)(CC(C)C)NC(=O)[C@H](CC(=O)O)NC(=O)[C@H](CC(=O)O)NC(=O)[C@H](CCC(=O)O)NC(=O)[C@H](CC(N)=O)NC(=O)[C@H](Cc4c[nH]c5ccccc45)NC(=O)[C@@H]4CCCN4C(=O)CNC(=O)[C@H](CC(N)=O)NC(=O)[C@@H](NC(=O)CNC(=O)[C@H](Cc4ccccc4)NC(=O)CN)CSSC[C@H](NC(=O)[C@H](Cc4ccc(O)cc4)NC(=O)CNC(=O)CNC(=O)[C@H](CCCCN)NC(=O)[C@H](Cc4ccc(O)cc4)NC(=O)CNC(=O)[C@H](CCCCN)NC1=O)C(=O)N[C@@H](C)C(=O)N[C@@H](CCCCN)C(=O)NCC(=O)NCC(=O)N[C@@H](Cc1ccccc1)C(=O)N[C@@H](C(C)C)C(=O)N3)C(=O)N[C@@H](Cc1c[nH]cn1)C(=O)NC(C)(C)C(=O)N[C@@H](Cc1c[nH]cn1)C(=O)N2 (stereo partly shown) | broth microdilution | ATCC 49775 | 18 h | 0.5 µM |
| CC[C@H](C)[C@H](NC(=O)[C@H](Cc1c[nH]c2ccccc12)NC(=O)[C@H](CCCCN)NC(=O)[C@H](CC(C)C)NC(=O)[C@@H](NC(=O)[C@@H](NC(=O)CNC(=O)[C@H](CCCCN)NC(=O)[C@H](Cc1c[nH]cn1)NC(=O)[C@H](CCCCN)NC(=O)[C@H](Cc1c[nH]c2ccccc12)NC(=O)[C@H](C)NC(=O)[C@H](CC(C)C)NC(=O)[C@H](CO)NC(=O)[C@@H](NC(=O)[C@H](Cc1ccc(O)cc1)NC(=O)[C@H](CCCCN)NC(=O)[C@H](CCC(N)=O)NC(=O)CNC(=O)[C@H](CCCCN)NC(=O)[C@@H](NC(=O)[C@H](C)NC(=O)[C@H](CC(C)C)NC(=O)[C@H](Cc1ccccc1)NC(=O)[C@H](CCC(N)=O)NC(=O)[C@@H](NC(=O)[C@H](CC(C)C)NC(=O)[C@H](CCCCN)NC(=O)[C@H](CCSC)NC(=O)[C@H](Cc1ccccc1)NC(=O)[C@H](C)NC(=O)[C@H](C)NC(=O)[C@@H](N)CCSC)[C@@H](C)CC)[C@@H](C)O)C(C)C)[C@@H](C)O)[C@@H](C)CC)C(=O)N[C@@H](CC(N)=O)C(N)=O | broth microdilution | ATCC 6538 | 24 h, 37 °C | 6 µg/mL |
